Assay results from different studies.
Lines come from different studies, so protocols differ. “And” joins repeats or separate records; there may be more than shown. ± gives the spread as reported.

COc1ccc(CCC(=O)c2c(O)cc(O[C@@H]3O[C@H](CO)[C@@H](O)[C@H](O)[C@H]3O[C@@H]3O[C@@H](C)[C@H](O)[C@@H](O)[C@H]3O)cc2O)cc1O — efflux ratio (Caco-2 monolayers; 100 µg/mL, 2 h; reference: Papp(BL-AP) over Papp(AP-BL)): 0.52 ± 0.2
COc1cccc(-c2n[nH]c(SCc3ccccn3)n2)c1OC — structural aberrations per 100 cells (primary human lymphocytes; 0.25 mg/mL, 20 h): 1.5
Cc1cc(C)c(CNC(=O)c2cc(Cl)c3c(c2C)O[C@@](C)([C@H]2CC[C@H](N(C)C)CC2)O3)c(=O)[nH]1 — efflux ratio (Caco-2; 3 µM, with: verapamil 100 µM): 1.18
C[C@H](CCC(=O)N[C@@H](Cc1ccc(O)cc1)C(=O)O)[C@H]1CC[C@H]2[C@@H]3[C@H](O)C[C@@H]4C[C@H](O)CC[C@]4(C)[C@H]3CC[C@]12C — recovery (HEK293T; LC-MS; serum-free conditioned medium; 100 µM, overnight; reference: non-conditioned medium): 135%
Nc1ccn(C[C@@H](CO)OCP(=O)(O)O)c(=O)n1 — CC90 (HFF; 7 days): > 20 µM
CC(=O)OC[C@H]1O[C@@H]([S-])[C@H](OC(C)=O)[C@@H](OC(C)=O)[C@@H]1OC(C)=O.CCP(CC)CC.[Au+] — EC50 (L929; cytotoxicity; 5 days): 0.1 µM
COc1ccc(-c2coc3cc(O)cc(O)c3c2=O)cc1 — amount transported (Caco-2 monolayers; 100 µg/mL, 2 h, apical to basolateral): 16.1 ± 1.4%
C[C@H]1[C@H](OC(=O)CCC(=O)O)O[C@@H]2O[C@@]3(C)CC[C@H]4[C@H](C)CC[C@@H]1[C@@]24OO3 — time to onset of cytotoxicity (ML-2 cells; CellTox Green; concentration not given): 48 h
C[C@@H]1O[C@@H](OC[C@H]2O[C@@H](Oc3c(-c4ccc(OCCO)c(OCCO)c4)oc4cc(OCCO)cc(O)c4c3=O)[C@H](O)[C@@H](O)[C@@H]2O)[C@H](O)[C@H](O)[C@H]1O — amount transported (Caco-2 monolayers; apical to basolateral transport; 100 µg/mL, 2 h): 4.87 ± 0.7%
CC(C)OC(=O)[C@H](C)N[P@](=O)(OC[C@H]1O[C@@H](n2ccc(=O)[nH]c2=O)[C@](C)(F)[C@@H]1O)Oc1ccccc1 — slope of fold mRNA vs concentration (cryopreserved human hepatocytes, donor LLT; CYP3A4 induction, refers to: CYP3A4 mRNA; concentration not given, 48 h): -0.000913
C[C@@H]1O[C@@H](O[C@H]2[C@H](Oc3cc(O)c4c(c3)O[C@H](c3ccc(O)cc3)CC4=O)O[C@H](CO)[C@@H](O)[C@@H]2O)[C@H](O)[C@H](O)[C@H]1O — efflux ratio (Caco-2 monolayers; 100 µg/mL, 2 h; reference: Papp(BL-AP) over Papp(AP-BL)): 0.38 ± 0.05
CCCC(CCC)NC(=O)c1ccc2c(c1)OCO2 — relative mitotic index (CHO-WBL; 0.062 mg/mL, 3 h, with rat liver S9): 122%
O=C(CS)NCCCCCC(=O)Nc1cccc2cccnc12 — efflux ratio (Caco-2 monolayers; with: quinidine 264 µM; reference: B-A over A-B): 1.24
O=c1cc(-c2ccc(O)c(O)c2)oc2cc(O)cc(O)c12 — efflux ratio (Caco-2 monolayers; 100 µg/mL, 2 h; reference: Papp(BL-AP) over Papp(AP-BL)): 0.59
Cc1cc(Nc2ncnc3ccc(NC4=NC(C)(C)CO4)cc23)ccc1Oc1ccn2ncnc2c1 — Papp A-B (MDCK-II cells, parental; bidirectional transwell permeability; 1 µM, 1 h, pH 7.4): 74.5 ± 15.8 nm/s
CC[C@H](C)[C@H](NC(=O)[C@H](CCCCN)NC(=O)[C@H](CCC(N)=O)NC(=O)[C@@H](NC(=O)[C@@H](NC(=O)[C@H](CCCCN)NC(=O)[C@H](CCCNC(=N)N)NC(=O)[C@H](Cc1ccccc1)NC(=O)CN)[C@@H](C)CC)C(C)C)C(=O)N[C@@H](CCCNC(=N)N)C(=O)N[C@@H](CC(=O)O)C(=O)N[C@@H](Cc1ccccc1)C(=O)N[C@@H](CC(C)C)C(=O)N[C@@H](CCCNC(=N)N)C(=O)N[C@@H](CC(N)=O)C(=O)N[C@@H](CC(C)C)C(=O)N[C@H](C(N)=O)C(C)C — HC50 (human erythrocytes; hemolysis; 1 h, 37 °C; reference: Triton X-100): 80 µM
O=C(C[C@@H](C(F)F)n1ccc(F)n1)N1CCC(O)(Cn2cnc3c(cnn3-c3ccc(F)cc3)c2=O)CC1 — viability (CAPAN-1 parental; SRB; 20 µM, 5 days): 22.3% and 26.3%

A few entries again:
C[C@@H]1O[C@@H](O[C@H]2[C@H](Oc3cc(O)c4c(c3)O[C@H](c3ccc(O)cc3)CC4=O)O[C@H](CO)[C@@H](O)[C@@H]2O)[C@H](O)[C@H](O)[C@H]1O — efflux ratio (Caco-2 monolayers; 100 µg/mL, 2 h; reference: Papp(BL-AP) over Papp(AP-BL)): 0.38 ± 0.05
CCCC(CCC)NC(=O)c1ccc2c(c1)OCO2 — relative mitotic index (CHO-WBL; 0.062 mg/mL, 3 h, with rat liver S9): 122%
